Measurements gathered from unrelated publications.
A part holds a random share of what one study measured.
Sequence of UniProt Q7L7X3 (whole entry, looked up): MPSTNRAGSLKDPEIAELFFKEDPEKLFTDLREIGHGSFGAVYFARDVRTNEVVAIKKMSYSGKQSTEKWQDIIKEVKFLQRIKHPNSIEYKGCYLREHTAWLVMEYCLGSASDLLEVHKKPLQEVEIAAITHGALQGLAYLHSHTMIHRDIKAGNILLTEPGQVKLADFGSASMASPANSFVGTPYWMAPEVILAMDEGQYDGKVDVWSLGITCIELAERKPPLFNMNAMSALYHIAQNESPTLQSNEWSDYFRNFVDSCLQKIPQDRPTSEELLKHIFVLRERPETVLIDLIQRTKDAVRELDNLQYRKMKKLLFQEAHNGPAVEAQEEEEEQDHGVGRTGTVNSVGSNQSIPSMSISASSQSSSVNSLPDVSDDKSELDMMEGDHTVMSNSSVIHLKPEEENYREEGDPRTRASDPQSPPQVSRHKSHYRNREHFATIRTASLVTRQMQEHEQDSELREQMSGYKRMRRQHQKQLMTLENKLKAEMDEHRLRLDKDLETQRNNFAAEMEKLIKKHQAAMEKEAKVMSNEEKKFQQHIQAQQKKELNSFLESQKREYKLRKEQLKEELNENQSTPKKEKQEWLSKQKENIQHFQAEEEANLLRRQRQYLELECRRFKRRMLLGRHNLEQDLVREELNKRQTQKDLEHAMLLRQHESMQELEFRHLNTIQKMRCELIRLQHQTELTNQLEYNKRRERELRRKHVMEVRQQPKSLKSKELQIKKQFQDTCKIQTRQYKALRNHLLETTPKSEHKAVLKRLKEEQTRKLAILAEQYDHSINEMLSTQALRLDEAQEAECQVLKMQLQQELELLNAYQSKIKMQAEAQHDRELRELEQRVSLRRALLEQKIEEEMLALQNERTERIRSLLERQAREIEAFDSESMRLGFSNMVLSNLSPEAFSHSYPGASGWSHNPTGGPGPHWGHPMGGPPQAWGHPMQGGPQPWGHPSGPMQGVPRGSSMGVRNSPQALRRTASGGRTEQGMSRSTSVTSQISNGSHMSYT
Sequence of UniProt Q13976 (whole entry, looked up): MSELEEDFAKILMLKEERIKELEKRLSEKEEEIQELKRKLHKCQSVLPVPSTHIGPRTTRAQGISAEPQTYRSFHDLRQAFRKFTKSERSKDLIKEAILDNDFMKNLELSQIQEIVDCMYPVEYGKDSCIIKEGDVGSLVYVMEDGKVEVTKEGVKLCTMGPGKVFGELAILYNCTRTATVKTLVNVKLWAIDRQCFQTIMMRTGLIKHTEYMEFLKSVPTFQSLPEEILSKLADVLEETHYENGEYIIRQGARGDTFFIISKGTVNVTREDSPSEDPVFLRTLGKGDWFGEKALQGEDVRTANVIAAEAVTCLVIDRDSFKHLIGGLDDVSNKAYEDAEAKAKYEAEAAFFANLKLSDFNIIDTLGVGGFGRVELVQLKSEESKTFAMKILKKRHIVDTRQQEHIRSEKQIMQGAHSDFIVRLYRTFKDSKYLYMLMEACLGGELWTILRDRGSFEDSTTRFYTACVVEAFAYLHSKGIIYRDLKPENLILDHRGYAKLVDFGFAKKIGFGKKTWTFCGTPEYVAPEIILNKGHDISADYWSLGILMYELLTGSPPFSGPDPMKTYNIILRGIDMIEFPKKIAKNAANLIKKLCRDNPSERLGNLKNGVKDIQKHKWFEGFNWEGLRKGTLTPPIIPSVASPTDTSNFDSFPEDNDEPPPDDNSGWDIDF
Sequence of UniProt Q96BR1 (whole entry, looked up): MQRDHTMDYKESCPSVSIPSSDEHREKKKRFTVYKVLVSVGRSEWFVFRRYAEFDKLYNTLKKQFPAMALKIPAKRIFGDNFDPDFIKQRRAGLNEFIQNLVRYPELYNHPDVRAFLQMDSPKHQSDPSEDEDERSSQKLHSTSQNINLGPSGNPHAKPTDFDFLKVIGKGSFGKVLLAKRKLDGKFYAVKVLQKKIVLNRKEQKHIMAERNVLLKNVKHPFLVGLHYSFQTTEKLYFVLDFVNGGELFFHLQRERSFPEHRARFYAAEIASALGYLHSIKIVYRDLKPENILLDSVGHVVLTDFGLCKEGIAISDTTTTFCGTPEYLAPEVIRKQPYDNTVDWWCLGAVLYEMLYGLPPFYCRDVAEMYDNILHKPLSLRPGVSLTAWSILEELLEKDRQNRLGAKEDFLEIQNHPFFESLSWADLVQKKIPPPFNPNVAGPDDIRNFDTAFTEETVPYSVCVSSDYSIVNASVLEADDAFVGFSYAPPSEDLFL
Sequence of UniProt P48729 (whole entry, looked up): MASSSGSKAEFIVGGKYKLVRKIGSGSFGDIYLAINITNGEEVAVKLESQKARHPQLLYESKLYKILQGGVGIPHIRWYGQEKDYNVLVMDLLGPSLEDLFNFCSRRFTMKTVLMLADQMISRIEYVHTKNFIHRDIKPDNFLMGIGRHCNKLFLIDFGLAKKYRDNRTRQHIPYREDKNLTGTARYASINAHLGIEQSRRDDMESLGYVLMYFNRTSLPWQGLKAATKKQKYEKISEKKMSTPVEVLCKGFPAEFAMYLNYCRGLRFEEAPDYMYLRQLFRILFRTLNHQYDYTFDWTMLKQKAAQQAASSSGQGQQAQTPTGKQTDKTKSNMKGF
Sequence of UniProt Q13470 (whole entry, looked up): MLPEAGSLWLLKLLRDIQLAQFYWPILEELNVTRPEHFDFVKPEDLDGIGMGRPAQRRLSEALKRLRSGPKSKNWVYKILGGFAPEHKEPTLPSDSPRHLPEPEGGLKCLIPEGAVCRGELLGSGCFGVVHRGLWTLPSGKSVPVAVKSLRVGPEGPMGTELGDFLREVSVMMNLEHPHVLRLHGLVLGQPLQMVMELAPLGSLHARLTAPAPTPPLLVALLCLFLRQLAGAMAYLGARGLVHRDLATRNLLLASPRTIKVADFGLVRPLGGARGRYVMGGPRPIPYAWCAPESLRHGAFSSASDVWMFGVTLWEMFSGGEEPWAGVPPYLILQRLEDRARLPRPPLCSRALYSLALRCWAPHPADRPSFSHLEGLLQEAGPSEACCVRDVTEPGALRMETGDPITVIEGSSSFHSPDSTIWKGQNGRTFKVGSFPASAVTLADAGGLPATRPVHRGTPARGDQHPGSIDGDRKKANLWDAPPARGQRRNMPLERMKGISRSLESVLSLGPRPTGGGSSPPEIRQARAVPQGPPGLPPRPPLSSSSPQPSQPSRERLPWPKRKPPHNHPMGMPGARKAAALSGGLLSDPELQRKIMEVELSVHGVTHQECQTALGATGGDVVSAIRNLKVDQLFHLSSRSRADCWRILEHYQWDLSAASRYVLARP
Sequence of UniProt Q13188 (whole entry, looked up): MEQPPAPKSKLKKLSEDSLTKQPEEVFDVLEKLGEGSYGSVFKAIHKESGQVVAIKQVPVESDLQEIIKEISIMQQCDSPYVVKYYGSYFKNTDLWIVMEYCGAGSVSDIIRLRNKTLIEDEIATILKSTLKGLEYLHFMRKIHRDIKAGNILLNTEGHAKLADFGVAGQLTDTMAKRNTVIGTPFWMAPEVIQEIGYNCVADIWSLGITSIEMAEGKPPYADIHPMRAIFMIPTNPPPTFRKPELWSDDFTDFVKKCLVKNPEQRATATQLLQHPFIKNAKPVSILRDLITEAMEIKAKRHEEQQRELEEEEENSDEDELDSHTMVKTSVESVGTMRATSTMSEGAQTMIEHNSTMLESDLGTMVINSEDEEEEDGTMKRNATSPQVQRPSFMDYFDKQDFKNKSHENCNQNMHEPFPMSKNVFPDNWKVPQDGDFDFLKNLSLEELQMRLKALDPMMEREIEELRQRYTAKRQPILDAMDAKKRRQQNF
Sequence of UniProt P06493 (whole entry, looked up): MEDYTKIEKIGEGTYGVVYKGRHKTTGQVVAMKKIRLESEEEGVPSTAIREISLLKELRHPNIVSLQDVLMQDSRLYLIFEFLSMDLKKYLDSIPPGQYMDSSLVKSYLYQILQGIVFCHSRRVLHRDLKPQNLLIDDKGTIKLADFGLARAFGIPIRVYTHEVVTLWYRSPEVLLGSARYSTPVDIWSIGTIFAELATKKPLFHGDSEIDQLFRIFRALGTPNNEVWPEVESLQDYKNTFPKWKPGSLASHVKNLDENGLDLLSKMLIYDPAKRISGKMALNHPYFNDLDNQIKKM

Series 1
SMILES: CCOCCn1cc(C(=O)Nc2ccc(-n3nc(-c4cccnc4)cc3C(F)(F)F)cn2)ccc1=O
Observed: cell-free assay
Method: competition with immobilised ligand
Concentration: 1 µM
| target | remaining binding [%] |
| --- | --- |
| PLK2 (Homo sapiens, UniProt Q9NYY3) | 88 |
| STK3 (Homo sapiens, UniProt Q13188) | 100 |
| TNK1 (Homo sapiens, UniProt Q13470) | 83 |
| TNK2 (Homo sapiens, UniProt Q07912) | 81 |
| PAK2 (Homo sapiens, UniProt Q13177) | 84 |
| CSNK1A1 (Homo sapiens, UniProt P48729) | 74 |
| KIT (Homo sapiens, UniProt P10721, V559D/V654A) | 100 |
| CLK1 (Homo sapiens, UniProt P49759) | 100 |
| PRKG1 (Homo sapiens, UniProt Q13976) | 98 |
| SGK3 (Homo sapiens, UniProt Q96BR1) | 65 |
| CIT (Homo sapiens, UniProt O14578) | 97 |
| HIPK1 (Homo sapiens, UniProt Q86Z02) | 90 |
| TAOK1 (Homo sapiens, UniProt Q7L7X3) | 87 |

Series 2
SMILES: O=C(c1ccccc1)c1ccc(N2CCOCC2)cc1O
Observed: enzyme activity
Mode: inhibitor
Concentration: 0.5 µM
Relative to: control
| target | remaining activity [%] |
| --- | --- |
| KDR (Homo sapiens, UniProt P35968) | 96.8 |
| MARK4 (Homo sapiens, UniProt Q96L34) | 100 |
| ROCK1 (Homo sapiens, UniProt Q13464) | 93.4 |
| Cyclin-dependent kinase 1, with cyclin A (CDK1, Homo sapiens, UniProt P06493) | 103 |
| GRK4 (Homo sapiens, UniProt P32298) | 104 |
| DCLK2 (Homo sapiens, UniProt Q8N568) | 103 |

Series 3
Target: Prothrombin, mature alpha-thrombin (F2, Homo sapiens, UniProt P00734)
Method: aptamer microarray, sandwich
Form: DNA with 2'F-ANA
Sample: in vitro
Concentration: 200 nM
Setting: whole 15-mer aptamer, many near background
With: Cy3 exosite-II aptamer, 400 nM
Direction: higher = stronger binding
Oligonucleotide: GGTTGGTGTGGTTGG
| Modification | mean fluorescence intensity |
| --- | --- |
| 2'F-ANA at 2 4 6 13 14 | 78.5 a.u. |
| 2'F-ANA at 2 5 6 8 10 11 12 13 15 | 47.4 a.u. |
| 2'F-ANA at 1 3 5 6 10 11 13 14 15 | 53.9 a.u. |
| 2'F-ANA at 1 2 4 5 6 7 9 11 13 15 | 62.4 a.u. |
| 2'F-ANA at 3 4 5 7 8 10 12 13 14 15 | 54.7 a.u. |
| 2'F-ANA at 1 3 6 8 9 10 11 | 74.6 a.u. |
| 2'F-ANA at 2 3 4 8 11 12 13 15 | 676 a.u. |
| 2'F-ANA at 2 4 5 6 7 11 12 13 14 | 78.9 a.u. |

Series 4
Target: Sal-like protein 4, full length isoform A (SALL4, Homo sapiens, UniProt Q9UJQ4, residues 1-1053)
Sequence of UniProt Q9UJQ4 (whole entry, looked up): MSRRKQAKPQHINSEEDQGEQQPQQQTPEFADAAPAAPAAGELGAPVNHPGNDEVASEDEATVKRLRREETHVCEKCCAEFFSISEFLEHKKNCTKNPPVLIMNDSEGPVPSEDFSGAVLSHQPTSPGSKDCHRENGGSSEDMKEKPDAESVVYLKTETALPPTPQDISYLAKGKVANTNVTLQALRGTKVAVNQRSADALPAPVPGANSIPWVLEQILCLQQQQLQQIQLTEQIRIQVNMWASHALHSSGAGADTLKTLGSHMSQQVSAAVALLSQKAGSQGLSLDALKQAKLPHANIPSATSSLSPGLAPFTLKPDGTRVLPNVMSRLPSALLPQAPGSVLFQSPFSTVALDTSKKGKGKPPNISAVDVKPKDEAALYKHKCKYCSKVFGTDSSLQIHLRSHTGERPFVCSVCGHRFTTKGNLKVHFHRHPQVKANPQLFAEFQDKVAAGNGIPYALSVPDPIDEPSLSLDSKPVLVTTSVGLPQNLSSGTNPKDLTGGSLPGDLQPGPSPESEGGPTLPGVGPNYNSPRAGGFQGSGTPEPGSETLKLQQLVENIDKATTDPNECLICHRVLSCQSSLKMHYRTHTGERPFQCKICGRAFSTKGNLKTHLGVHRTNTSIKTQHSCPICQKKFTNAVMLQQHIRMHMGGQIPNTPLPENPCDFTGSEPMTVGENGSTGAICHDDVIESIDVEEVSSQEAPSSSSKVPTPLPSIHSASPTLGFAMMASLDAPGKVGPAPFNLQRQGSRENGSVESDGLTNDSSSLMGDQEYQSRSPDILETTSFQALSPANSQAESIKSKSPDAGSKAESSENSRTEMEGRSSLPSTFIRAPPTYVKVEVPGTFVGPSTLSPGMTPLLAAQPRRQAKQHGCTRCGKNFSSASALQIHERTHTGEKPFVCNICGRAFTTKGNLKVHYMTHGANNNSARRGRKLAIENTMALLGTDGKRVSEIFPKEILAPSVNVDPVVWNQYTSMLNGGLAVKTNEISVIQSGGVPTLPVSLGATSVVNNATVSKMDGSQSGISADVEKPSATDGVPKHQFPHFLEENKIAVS
Method: universal PBM
Form: double-stranded DNA, one strand shown
Sample: in vitro
Concentration: 600 nM
Setting: 8-mer, flanks averaged, mean of replicates
Direction: higher = stronger binding
| Oligonucleotide | E-score |
| --- | --- |
| ATAGACAG | 0.161 |
| CTGGGTCA | -0.186 |
| ACCCACAG | -0.0802 |
| AAGTCAAG | -0.0959 |
| ATTTCCGC | 0.0101 |
| AGGCCTGC | -0.348 |
| GTAGAGCA | -0.0628 |
| AAAGAGGG | -0.0445 |

For quick reference, copied from above (series 2):
| target | remaining activity [%] |
| --- | --- |
| Cyclin-dependent kinase 1, with cyclin A (CDK1, Homo sapiens, UniProt P06493) | 103 |
| DCLK2 (Homo sapiens, UniProt Q8N568) | 103 |
| ROCK1 (Homo sapiens, UniProt Q13464) | 93.4 |
| GRK4 (Homo sapiens, UniProt P32298) | 104 |
